Results of several laboratories.
A part holds a random share of what one study measured. Substitutions count along the parent as printed.

Sample 1
Target: CCNA2, cyclin fold, Cln2 fusion (human)
Method: yeast growth competition, sequencing
Matrix: yeast
Setting: strong parent motif
Baseline: not given
Direction: higher = stronger binding
Starting sequence: viral docking peptide; KKVKRRLFETREL; partner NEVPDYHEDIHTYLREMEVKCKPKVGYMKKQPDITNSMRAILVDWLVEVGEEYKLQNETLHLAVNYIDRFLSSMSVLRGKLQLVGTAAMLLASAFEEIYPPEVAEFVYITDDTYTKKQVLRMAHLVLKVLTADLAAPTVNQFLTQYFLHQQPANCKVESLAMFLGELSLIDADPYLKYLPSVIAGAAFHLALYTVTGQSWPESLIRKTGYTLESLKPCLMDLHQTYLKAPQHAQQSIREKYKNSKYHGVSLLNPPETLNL
| Substitution | normalised enrichment score |
| --- | --- |
| R5K F8L | 0.397 |
| E9A | 4.77 |
| K1A | 5.41 |
| T10A | 5.93 |
| L7A | 1.54 |
| K2A | 5.74 |
| R6A | 4.75 |

Sample 2
Target: HLA class I histocompatibility antigen, A alpha chain, allele A*80:01 (Homo sapiens, UniProt P04439)
Observed: peptide-MHC binding
Form: peptide
Tested at: concentration not given
| Sequence | binding |
| --- | --- |
| MPMSMPIPM | inactive |
| FGALFMWLL | inactive |
| VSDFRKEFY | inactive |
| MAVTAAPYI | inactive |
| MTRVTNNVY | inactive |
| GIVCYNEEV | inactive |
| ASLLRRWPK | inactive |
| FHKRDMRLL | inactive |
| EISGSSARY | inactive |
| WLAGFEPSE | inactive |
| YLQYSISTA | inactive |
| LYKTIVNIW | inactive |
| VQPWLMVDV | inactive |
| ISEMLSKEY | inactive |
| QQDTNSAGL | inactive |
| HHYSQAAVL | inactive |
| ILHRLAPWI | inactive |

Sample 3
Target: Histone acetyltransferase KAT6A, winged helix 1, GST fusion (KAT6A, Homo sapiens, UniProt Q92794, residues 1-85)
Method: protein binding microarray
Form: double-stranded DNA, one strand shown
Matrix: in vitro
Tested at: not given
Setting: 8-mer, flanks averaged, mean of 2 arrays, mostly near background
Baseline: not given
Direction: higher = stronger binding
Construct (chain): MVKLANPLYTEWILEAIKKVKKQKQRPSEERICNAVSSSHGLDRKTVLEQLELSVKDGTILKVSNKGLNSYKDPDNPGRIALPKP
| Sequence | E-score |
| --- | --- |
| ATCGGCAG | 0.139 |
| ACCGGGTG | 0.329 |
| GCAGACCC | 0.143 |
| AATGCATC | -0.289 |
| GGATGAAC | -0.0939 |
| ACGCGCCC | 0.392 |
| GCGGATTA | 0.158 |
| ATACCGAC | 0.165 |

Mixed results
Method: cross-linking MS
| Substance | partner | test system | conditions | quantity | value |
| --- | --- | --- | --- | --- | --- |
| LDHB (Homo sapiens, UniProt P07195) | ZNF518B (Homo sapiens, UniProt Q9C0D4) | cell fractions | together with: DHSO | cross-linked residues | D57 to E395 |
| HSPA5 (Homo sapiens, UniProt P11021) | PDIA6 (Homo sapiens, UniProt Q15084) |  | hits only | interaction screen | cross-linked |
| NDUFS7 (Homo sapiens, UniProt O75251) | NDUFA9 (Homo sapiens, UniProt Q16795) | cell fractions | together with: DSSO | cross-linked residues | K55 to K147 |
| KRT18 (Homo sapiens, UniProt P05783) | KRT8 (Homo sapiens, UniProt P05787) |  | hits only | interaction screen | cross-linked |
